Published values gathered from unrelated publications.
Parts stem from different laboratories: compare values within a part only.
Chain of UniProt Q8NEV4 (whole entry, looked up): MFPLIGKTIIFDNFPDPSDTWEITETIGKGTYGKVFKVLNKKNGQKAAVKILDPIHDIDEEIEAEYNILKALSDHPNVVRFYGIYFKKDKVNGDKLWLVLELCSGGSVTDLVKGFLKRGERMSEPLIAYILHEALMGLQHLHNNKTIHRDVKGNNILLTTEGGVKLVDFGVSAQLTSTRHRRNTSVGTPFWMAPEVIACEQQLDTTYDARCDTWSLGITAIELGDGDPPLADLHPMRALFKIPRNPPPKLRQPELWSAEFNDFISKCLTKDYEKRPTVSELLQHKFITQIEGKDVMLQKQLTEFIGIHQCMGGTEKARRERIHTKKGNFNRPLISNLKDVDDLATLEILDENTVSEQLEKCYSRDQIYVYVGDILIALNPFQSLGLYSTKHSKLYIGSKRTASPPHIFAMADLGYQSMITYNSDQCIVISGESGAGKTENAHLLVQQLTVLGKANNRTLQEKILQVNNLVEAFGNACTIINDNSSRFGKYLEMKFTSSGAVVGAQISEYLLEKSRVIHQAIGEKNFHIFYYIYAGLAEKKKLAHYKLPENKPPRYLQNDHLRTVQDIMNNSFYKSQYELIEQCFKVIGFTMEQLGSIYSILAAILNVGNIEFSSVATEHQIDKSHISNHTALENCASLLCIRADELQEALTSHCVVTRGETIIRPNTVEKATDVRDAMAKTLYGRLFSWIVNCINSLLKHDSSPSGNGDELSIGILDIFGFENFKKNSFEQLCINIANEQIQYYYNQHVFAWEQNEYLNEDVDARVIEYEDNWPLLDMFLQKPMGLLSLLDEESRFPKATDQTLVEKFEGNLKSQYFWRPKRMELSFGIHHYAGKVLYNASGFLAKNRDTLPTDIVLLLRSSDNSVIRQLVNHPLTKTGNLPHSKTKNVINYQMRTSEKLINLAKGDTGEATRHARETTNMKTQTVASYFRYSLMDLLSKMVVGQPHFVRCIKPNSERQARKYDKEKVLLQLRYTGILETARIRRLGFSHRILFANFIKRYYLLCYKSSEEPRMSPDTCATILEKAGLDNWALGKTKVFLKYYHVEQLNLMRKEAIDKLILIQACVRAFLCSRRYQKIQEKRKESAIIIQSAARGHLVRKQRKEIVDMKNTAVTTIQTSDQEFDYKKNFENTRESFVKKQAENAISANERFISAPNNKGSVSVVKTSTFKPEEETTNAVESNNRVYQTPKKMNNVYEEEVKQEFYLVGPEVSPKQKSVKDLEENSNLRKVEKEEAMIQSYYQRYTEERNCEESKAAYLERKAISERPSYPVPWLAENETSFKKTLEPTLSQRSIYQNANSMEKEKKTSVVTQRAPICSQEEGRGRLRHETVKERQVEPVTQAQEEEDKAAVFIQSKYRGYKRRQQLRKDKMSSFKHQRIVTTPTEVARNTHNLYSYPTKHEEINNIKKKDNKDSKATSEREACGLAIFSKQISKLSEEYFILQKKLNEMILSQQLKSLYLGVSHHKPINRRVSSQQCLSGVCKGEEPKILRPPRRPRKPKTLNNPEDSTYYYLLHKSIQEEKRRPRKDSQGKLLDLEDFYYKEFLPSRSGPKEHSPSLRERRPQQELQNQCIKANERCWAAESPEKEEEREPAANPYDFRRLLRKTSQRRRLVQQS
Chain of UniProt Q15139 (whole entry, looked up): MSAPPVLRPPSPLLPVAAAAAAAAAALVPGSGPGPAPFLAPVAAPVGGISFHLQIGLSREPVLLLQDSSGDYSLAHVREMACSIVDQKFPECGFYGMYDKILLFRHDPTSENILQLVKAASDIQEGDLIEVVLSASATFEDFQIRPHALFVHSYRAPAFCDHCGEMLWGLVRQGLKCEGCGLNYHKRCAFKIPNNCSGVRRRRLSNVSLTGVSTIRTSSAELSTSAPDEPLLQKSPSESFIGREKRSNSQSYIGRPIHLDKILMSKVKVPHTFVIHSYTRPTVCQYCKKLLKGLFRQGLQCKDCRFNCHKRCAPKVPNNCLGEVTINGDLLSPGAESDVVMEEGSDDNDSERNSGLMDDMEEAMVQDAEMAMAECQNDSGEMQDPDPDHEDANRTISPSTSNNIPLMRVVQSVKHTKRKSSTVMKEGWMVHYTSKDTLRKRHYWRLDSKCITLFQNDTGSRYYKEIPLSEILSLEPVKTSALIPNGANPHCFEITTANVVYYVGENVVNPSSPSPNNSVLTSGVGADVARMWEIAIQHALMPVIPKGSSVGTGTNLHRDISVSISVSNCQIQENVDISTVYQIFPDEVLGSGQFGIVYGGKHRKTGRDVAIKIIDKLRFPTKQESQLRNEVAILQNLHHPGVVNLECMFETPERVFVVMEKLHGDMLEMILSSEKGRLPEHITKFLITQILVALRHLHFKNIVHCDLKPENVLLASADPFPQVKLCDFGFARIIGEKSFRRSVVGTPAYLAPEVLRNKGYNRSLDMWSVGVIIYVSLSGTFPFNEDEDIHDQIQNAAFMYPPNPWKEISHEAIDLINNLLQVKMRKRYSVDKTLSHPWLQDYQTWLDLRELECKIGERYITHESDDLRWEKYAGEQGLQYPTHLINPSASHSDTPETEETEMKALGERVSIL
Chain of UniProt Q7KZI7 (whole entry, looked up): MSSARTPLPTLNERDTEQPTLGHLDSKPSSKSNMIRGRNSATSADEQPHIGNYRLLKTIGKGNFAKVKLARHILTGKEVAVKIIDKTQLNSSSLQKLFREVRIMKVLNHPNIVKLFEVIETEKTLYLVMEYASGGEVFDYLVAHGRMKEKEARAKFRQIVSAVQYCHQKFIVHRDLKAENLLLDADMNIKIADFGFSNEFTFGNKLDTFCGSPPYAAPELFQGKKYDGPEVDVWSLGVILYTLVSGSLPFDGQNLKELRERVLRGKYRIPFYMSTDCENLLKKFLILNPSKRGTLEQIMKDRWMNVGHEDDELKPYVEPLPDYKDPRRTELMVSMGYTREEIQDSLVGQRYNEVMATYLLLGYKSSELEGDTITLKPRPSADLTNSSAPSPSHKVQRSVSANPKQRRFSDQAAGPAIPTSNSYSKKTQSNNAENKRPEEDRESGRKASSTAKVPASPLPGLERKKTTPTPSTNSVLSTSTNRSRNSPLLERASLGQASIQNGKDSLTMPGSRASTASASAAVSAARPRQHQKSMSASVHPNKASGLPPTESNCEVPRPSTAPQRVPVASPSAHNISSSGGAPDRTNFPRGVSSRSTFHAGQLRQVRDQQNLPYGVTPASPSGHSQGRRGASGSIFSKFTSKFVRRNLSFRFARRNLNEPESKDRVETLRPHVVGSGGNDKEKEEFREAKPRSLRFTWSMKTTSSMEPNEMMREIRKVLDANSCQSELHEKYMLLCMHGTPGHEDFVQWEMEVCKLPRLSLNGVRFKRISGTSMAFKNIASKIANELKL
Chain of UniProt Q15418 (whole entry, looked up): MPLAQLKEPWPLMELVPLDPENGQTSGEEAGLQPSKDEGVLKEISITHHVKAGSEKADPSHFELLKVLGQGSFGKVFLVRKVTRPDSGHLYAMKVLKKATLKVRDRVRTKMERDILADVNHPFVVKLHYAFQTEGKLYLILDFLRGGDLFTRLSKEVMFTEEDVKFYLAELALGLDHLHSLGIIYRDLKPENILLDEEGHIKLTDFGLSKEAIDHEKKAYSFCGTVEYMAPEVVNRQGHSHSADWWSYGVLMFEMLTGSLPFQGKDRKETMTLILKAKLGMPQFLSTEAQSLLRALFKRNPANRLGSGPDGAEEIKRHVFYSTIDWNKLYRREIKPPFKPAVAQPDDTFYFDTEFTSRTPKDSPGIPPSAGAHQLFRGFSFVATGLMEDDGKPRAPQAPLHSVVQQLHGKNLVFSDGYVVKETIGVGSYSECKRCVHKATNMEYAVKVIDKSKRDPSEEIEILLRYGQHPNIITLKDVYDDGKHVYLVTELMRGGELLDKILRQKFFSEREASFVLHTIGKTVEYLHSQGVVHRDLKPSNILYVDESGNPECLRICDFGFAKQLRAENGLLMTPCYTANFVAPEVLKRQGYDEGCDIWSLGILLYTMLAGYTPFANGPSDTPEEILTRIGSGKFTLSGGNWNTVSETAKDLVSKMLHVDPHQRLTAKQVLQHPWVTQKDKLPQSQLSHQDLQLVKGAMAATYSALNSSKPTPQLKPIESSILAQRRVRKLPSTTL
Chain of UniProt Q9HBY8 (whole entry, looked up): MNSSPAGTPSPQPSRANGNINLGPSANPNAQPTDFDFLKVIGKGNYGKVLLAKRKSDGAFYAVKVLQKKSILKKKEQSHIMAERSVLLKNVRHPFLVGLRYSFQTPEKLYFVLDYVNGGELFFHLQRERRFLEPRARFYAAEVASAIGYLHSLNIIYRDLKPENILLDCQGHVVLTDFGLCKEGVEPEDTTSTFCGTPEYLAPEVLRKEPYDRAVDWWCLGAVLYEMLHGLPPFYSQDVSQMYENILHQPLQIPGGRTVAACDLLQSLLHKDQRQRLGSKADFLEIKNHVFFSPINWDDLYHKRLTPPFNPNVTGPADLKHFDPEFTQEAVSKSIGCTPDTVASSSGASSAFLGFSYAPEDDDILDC

Study 1 — SMILES: O=C(Nc1ccccc1)Nc1cccc(Oc2ccc3nccn3n2)c1; concentration: 1 µM
| target | test | setting | scale | remaining binding [%] |
| --- | --- | --- | --- | --- |
| Serine/threonine-protein kinase 17B (STK17B, Homo sapiens, UniProt O94768) | competitive binding panel, refers to: DRAK2 |  | reference: vehicle | 99 |
| Serine/threonine-protein kinase MARK2 (MARK2, Homo sapiens, UniProt Q7KZI7) | competitive binding panel |  | reference: vehicle | 61 |
| cAMP-dependent protein kinase catalytic subunit alpha (PRKACA, Homo sapiens, UniProt P17612) | competitive binding | PKAC-alpha |  | 52 |
| Tyrosine-protein kinase ABL1 (ABL1, Homo sapiens, UniProt P00519, M351T) | competitive binding panel |  | reference: vehicle | 100 |
| Glycogen synthase kinase-3 alpha (GSK3A, Homo sapiens, UniProt P49840) | competitive binding panel |  | reference: vehicle | 50 |
| Phosphatidylinositol 4,5-bisphosphate 3-kinase catalytic subunit alpha isoform (PIK3CA, Homo sapiens, UniProt P42336, I800L) | competitive binding panel |  | reference: vehicle | 100 |

Study 2 — target: His6 tag; technique: AlphaScreen counter screen; concentration: concentration not given
| SMILES | inhibition [%] |
| --- | --- |
| C[C@@H](N)[C@H]1CC[C@H](C(=O)Nc2ccncc2)CC1.Cl.Cl | 1.4 |
| Cc1c(C(N)=O)sc2nc[nH]c(=O)c12 | -3.6 |
| COc1cccc(Nc2ncc3c(n2)CCNC3)c1 | 13 |
| O=C(NCc1ccc(F)cc1)c1n[nH]c2ccccc12 | -5.25 |
| CCCNC(=O)Nc1ccc(Oc2ncnc3cc(OC)c(OC)cc23)cc1Cl | 6.3 |
| COc1cccc(-c2cc(=O)c3ccccc3o2)c1N | -8.3 |
| Cn1cc(C=C2SC(=O)NC2=O)c2ccccc21 | 17.7 |
| CCn1c(SCCC(=O)O)nc2c1c(=O)[nH]c(=O)n2C | -5.15 |
| CCOc1c(Br)ccc2c1sc1nc[nH]c(=O)c12 | 6.45 |
| O=C(CSc1ccc2nnc(-c3ccc(Cl)cc3)n2n1)N1CCOCC1 | -10.8 |

Study 3 — observed: enzyme activity; mode: inhibitor; concentration: 0.5 µM; reference: control
Target: Casein kinase I isoform gamma-1 (CSNK1G1, Homo sapiens, UniProt Q9HCP0)
Chain of UniProt Q9HCP0 (whole entry, looked up): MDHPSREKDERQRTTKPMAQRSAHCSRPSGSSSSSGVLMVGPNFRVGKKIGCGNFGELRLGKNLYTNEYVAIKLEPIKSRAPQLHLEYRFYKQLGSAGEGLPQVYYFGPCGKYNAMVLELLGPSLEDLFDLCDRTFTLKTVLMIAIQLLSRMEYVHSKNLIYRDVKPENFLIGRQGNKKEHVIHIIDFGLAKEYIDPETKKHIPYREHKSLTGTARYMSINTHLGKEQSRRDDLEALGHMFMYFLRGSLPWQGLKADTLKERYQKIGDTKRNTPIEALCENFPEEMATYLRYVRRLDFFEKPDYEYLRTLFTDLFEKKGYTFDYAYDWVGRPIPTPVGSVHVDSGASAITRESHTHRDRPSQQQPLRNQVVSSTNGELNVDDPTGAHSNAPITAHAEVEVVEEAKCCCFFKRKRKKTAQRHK
| SMILES | remaining activity [%] |
| --- | --- |
| COc1cc2c(cc1OC)-c1[nH]nc(Nc3cccc(F)c3)c1C2 | 77.8 |
| c1ccc(-c2[nH]ncc2-c2ccnc3ccccc23)nc1 | 92.2 |
| CN(C)C[C@H]1CCn2c(c(C3=C(c4cn(C)c5ccccc45)C(=O)NC3=O)c3ccccc32)C1 | 97 |
| O=C(NC(NC(=S)Nc1ccc(F)c([N+](=O)[O-])c1)C(Cl)(Cl)Cl)C(c1ccccc1)c1ccccc1 (stereo not drawn) | 83.3 |
| O=C(Nc1cccc(Nc2nccc(Nc3cccc(C(F)(F)F)c3)n2)c1)C1CC1 | 105 |
| c1ccc(-c2cnc(Nc3ccc(OCCN4CCCC4)cc3)s2)cc1 | 94.7 |
| Cc1cn(-c2cc(NC(=O)c3ccc(C)c(Nc4nccc(-c5cccnc5)n4)c3)cc(C(F)(F)F)c2)cn1 | 104 |
| O=c1cc(-c2cccc3c2Sc2ccccc2S3)oc(N2CCOCC2)c1 | 99.3 |
| O=C1C(Cl)=C(N2C(=O)CCC2=O)C(=O)c2ccccc21 | 147 |
| COc1cc2ncnc(Nc3cccc(Cl)c3)c2cc1OC | 99.9 |
| Cc1cc2ncc(-c3ccccc3)nc2cc1C | 85.7 |
| CCN(CC)CCNC(=O)c1c(C)[nH]c(/C=C2\C(=O)Nc3ccc(Cl)cc32)c1C | 69.2 |

Study 4 — observed: cell-free assay; technique: competition with immobilised ligand; concentration: 1 µM
SMILES: CCS(=O)(=O)c1cc2cc(C[C@](O)(CC(C)(C)c3ccc(F)cc3C(N)=O)C(F)(F)F)[nH]c2cn1
| target | remaining binding [%] |
| --- | --- |
| Homeodomain-interacting protein kinase 1 (HIPK1, Homo sapiens, UniProt Q86Z02) | 94 |
| Serine/threonine-protein kinase Sgk2 (SGK2, Homo sapiens, UniProt Q9HBY8) | 90 |
| 1-phosphatidylinositol 3-phosphate 5-kinase (PIKFYVE, Homo sapiens, UniProt Q9Y2I7) | 97 |
| NUAK family SNF1-like kinase 1 (NUAK1, Homo sapiens, UniProt O60285) | 100 |
| Ribosomal protein S6 kinase alpha-1, C-terminal kinase domain (RPS6KA1, Homo sapiens, UniProt Q15418) | 87 |
| Serine/threonine-protein kinase PLK3 (PLK3, Homo sapiens, UniProt Q9H4B4) | 93 |
| Mitogen-activated protein kinase kinase kinase kinase 2 (MAP4K2, Homo sapiens, UniProt Q12851) | 96 |
| Mitogen-activated protein kinase kinase kinase 20 (MAP3K20, Homo sapiens, UniProt Q9NYL2) | 87 |
| Myosin-IIIa (MYO3A, Homo sapiens, UniProt Q8NEV4) | 94 |
| Bone morphogenetic protein receptor type-2 (BMPR2, Homo sapiens, UniProt Q13873) | 100 |
| Death-associated protein kinase 3 (DAPK3, Homo sapiens, UniProt O43293) | 97 |
| Serine/threonine-protein kinase D1 (PRKD1, Homo sapiens, UniProt Q15139) | 100 |
| Dual specificity tyrosine-phosphorylation-regulated kinase 2 (DYRK2, Homo sapiens, UniProt Q92630) | 92 |
| Epidermal growth factor receptor (EGFR, Homo sapiens, UniProt P00533, G719C) | 100 |
| Proto-oncogene tyrosine-protein kinase receptor Ret (RET, Homo sapiens, UniProt P07949, V804M) | 100 |
| Receptor-type tyrosine-protein kinase FLT3 (FLT3, Homo sapiens, UniProt P36888) | 87 |
| Serine/threonine-protein kinase NIM1 (NIM1K, Homo sapiens, UniProt Q8IY84) | 100 |

A few entries again (study 4):
| target | remaining binding [%] |
| --- | --- |
| Bone morphogenetic protein receptor type-2 (BMPR2, Homo sapiens, UniProt Q13873) | 100 |
| Mitogen-activated protein kinase kinase kinase kinase 2 (MAP4K2, Homo sapiens, UniProt Q12851) | 96 |
| Receptor-type tyrosine-protein kinase FLT3 (FLT3, Homo sapiens, UniProt P36888) | 87 |
| Proto-oncogene tyrosine-protein kinase receptor Ret (RET, Homo sapiens, UniProt P07949, V804M) | 100 |
| Serine/threonine-protein kinase D1 (PRKD1, Homo sapiens, UniProt Q15139) | 100 |
| Homeodomain-interacting protein kinase 1 (HIPK1, Homo sapiens, UniProt Q86Z02) | 94 |
